Assay results collected from several papers.
Protocols differ between the studies behind these lines. Several values in a cell are separate wells, animals, samples, runs or records. Numbers after ± are the reported error.
EPHA4: Ephrin type-A receptor 4 (EPHA4, Homo sapiens, UniProt P54764)
PTGS1: Prostaglandin G/H synthase 1 (PTGS1, Homo sapiens, UniProt P23219)

With `FC(F)(F)c1csc(Nc2ccc(Cl)c(Cl)c2)n1` the IC50 was 20.9 µM (Kinesin-like protein KIF15 (Homo sapiens, UniProt Q9NS87); ATPase activity, inhibitor).
The IC50 of `NC(=O)[C@@H]1CCCNC(=O)[C@H](Cc2ccc([N+](=O)[O-])cc2)NC(=O)[C@H](Cc2ccco2)NC(=O)[C@H](CC2CC2)NC(=O)/C=C/C(=O)N1` is reported as over 100 µM (Lck (Mus musculus, UniProt P06240); enzyme activity, inhibitor, absorbance).
With `COc1ccc(C(=O)/C=C/c2ccccc2-c2c[nH]c3ccc(C#N)cc23)c(O)c1` the IC50 was 0.5 µM (PIM1 (Homo sapiens, UniProt P11309); enzyme activity, inhibitor).
`Cc1cc(O)cc2c1C(=O)c1c(cc3oc(=O)cc(-c4ccc(O)cc4)c3c1O)C2=O` has an IC50 of over 100 µg/mL (mushroom tyrosinase; enzyme activity; with: L-DOPA).
`O=c1c(-c2cccnc2)c[nH]n1-c1cc(N2CCCC2)ncn1` gave an IC50 of 0.92 µM (EGLN2 (Homo sapiens, UniProt Q96KS0); enzyme activity, inhibitor, europium VBC binding; 10 µM FeSO4, 2 mM ascorbate, with: 20 µM 2-oxoglutarate).
`CCOC(=O)N1CCC(Oc2nc3c(c(=O)n(C)c(=O)n3C)n2CCC(C)C)CC1` gave an IC50 of over 57 µM (ALDH2 (Homo sapiens, UniProt P05091); enzyme activity, inhibitor).
The IC50 of `OC[C@H]1[C@@H](O)[C@@H](O)CN1CCc1ccccc1` is reported as 2700 µM (Alpha-mannosidase (Canavalia ensiformis, UniProt C0HJB3); enzyme activity, inhibitor, absorbance; pH 5).
With `CNC(=O)C1CCN(c2ccccc2NC(=O)c2ccc(-c3cc(O)ccc3C)c(OC)c2)CC1` the IC50 was 0.119 µM (EPHA4; target engagement in cells, BRET).
The IC50 of `CCn1c(SC(C)C(=O)Nc2ccccc2)nnc1C1CCN(C(=O)Nc2ccccc2)CC1` (centres unmarked) is reported as 5.76 µM and < 7 µM (Seed linoleate 13S-lipoxygenase-1 (Glycine max, UniProt P08170); enzyme activity, inhibitor).
The IC50 of `O=C1N=C(O)SC1=Cc1ccc(-c2cccc(C(F)(F)F)c2)o1` is reported as 20.8 µM (CD38 (Homo sapiens, UniProt P28907); cyclase activity, fluorometric; with: NGD+ substrate).
For `CC1=C(/C=C/C(C)=C/C=C/C(C)=C/C=O)C(C)(C)CCC1`, the IC50 was 0.22 µM (CNGA1 (Bos taurus, UniProt Q00194); cGMP-activated current, inhibitor, inside-out patch clamp; +100 mV, with: saturating cGMP 2 mM).
`CCn1cc(-c2ccnc(Nc3ccc(OC)cc3)n2)c(-c2cccnc2)n1` gave an IC50 of 0.0943 µM (ACVR1 (Homo sapiens, UniProt Q04771, R206H); enzyme activity, inhibitor, radiometric).
`C=C(NC(=O)C(=C)NC(=O)c1csc(C2=NC3c4csc(n4)C4NC(=O)c5csc(n5)C(C(C)(O)C(C)O)NC(=O)C5CSC(=N5)C(=CC)NC(=O)C(C(C)O)NC(=O)c5csc(n5)C3(CC2)NC(=O)C(C)NC(=O)C(=C)NC(=O)C(CCSC)NC(=O)C(C(C)CC)NC2C=Cc3c(C(C)O)cc(nc3C2O)C(=O)OC4C)n1)C(N)=O` (centres unmarked) has an IC50 of 0.09 ± 0.01 µM (Proteasome subunit beta type-7, in 20S proteasome (PSMB7, Homo sapiens, UniProt Q99436); trypsin-like activity, inhibitor; purified human 20S proteasome; 37 °C, 15 min preincubation, with: Boc-Leu-Arg-Arg-AMC).
With `O=C1CCN(Cc2ccccc2)CC1C(C[N+](=O)[O-])c1ccccc1` (centres unmarked) the IC50 was 46.1 µM (PTGS1; enzyme activity, inhibitor).
`Cc1cc2c(c(O)c1O)C(=O)c1c(O)cc(O)cc1C2=O` has an IC50 of 11.5 ± 1.08 µM (AVPR1A (Homo sapiens, UniProt P37288); agonist response, antagonist; with: vasopressin 10 nM).
With `N=C(N)NCCC[C@@H](NC(=O)[C@H](Cc1c[nH]cn1)NC(=O)[C@H](CO)NC(=O)[C@H](Cc1c[nH]c2ccccc12)NC(=O)[C@H](Cc1c[nH]cn1)NC(=O)[C@@H]1CCC(=O)N1)C(=O)N[C@@H](Cc1c[nH]c2ccccc12)C(=O)N[C@@H](Cc1ccc(O)cc1)C(=O)N1CCC[C@H]1C(=O)NCC(N)=O` the IC50 was 0.0005 µM (Gonadotropin-releasing hormone receptor (Rattus norvegicus, UniProt P30969); ligand displacement in cells, radioligand).
For `CN(C(=O)c1ccn2ncc(-c3ccc(C(N)=O)cc3)c2c1)c1ccc(C#N)cn1`, the IC50 was over 10 µM (ZAP70 (Homo sapiens, UniProt P43403); enzyme activity, inhibitor).
`Cc1cccc(-c2cc(C#N)cc(Oc3c(C(F)(F)F)ccn(Cc4n[nH]c(=O)n4C)c3=O)c2)c1` gave an IC50 of 0.041 µM (Gag-Pol polyprotein, reverse transcriptase (gag-pol, Human immunodeficiency virus 1, UniProt P03366); enzyme activity, inhibitor).
With `Cc1ccc(-c2cc(C(=O)NCc3ccco3)c3cc(Br)ccc3n2)o1` the IC50 was over 100 µM (TPR (Trypanosoma brucei brucei, UniProt P39051); inhibitor, DTNB-coupled colourimetric; with: substrate at Km).
The IC50 of `O=C(c1ccc(Cl)cc1)N1CCN(c2ccc(F)cc2)CC1` is reported as 2.55 µM (SEC14 (Saccharomyces cerevisiae, UniProt P24280); enzyme activity, inhibitor, radiometric).
`N#C/C(=C\c1ccc2ccncc2c1)C(N)=O` has an IC50 of 6.4 µM (Ribosomal protein S6 kinase alpha-3, C-terminal kinase domain (RPS6KA3, Homo sapiens, UniProt P51812, T493M); kinase activity, inhibitor; with: 0.1 mM ATP).
For `C=C1CN(S(=O)(=O)c2ccc(C)cc2)CCCN(Cc2ccccc2)CCCN(S(=O)(=O)c2ccc(C)cc2)C1`, the IC50 was 2.05 µM (Inactive tyrosine-protein kinase 7 (PTK7, Homo sapiens, UniProt Q13308); human cells).
For `CNC(=O)C1CCN(c2ccccc2NC(=O)c2ccc(-c3c(C)ccc4[nH]ncc34)c(C)c2)CC1`, the IC50 was 0.013 µM (EPHA4; target engagement in cells, BRET).
`Cn1sc(Nc2c(Cl)ccc3ncccc23)c(C#N)c1=O` has an IC50 of 2.4 µM (SARM1 (Homo sapiens, UniProt Q6SZW1, C635A); enzyme activity, inhibitor).
`OC[C@@H]1[C@@H](O)[C@H](O)[C@@H](O)[C@H]2O[C@@H]12` has an IC50 of over 100 µM (Beta-glucosidase (GBA2, Homo sapiens, UniProt Q9HCG7); enzyme activity, inhibitor; pH 5.8, with preincubation).
For `Fc1ccccc1NCc1cn(-c2ccccc2)nc1-c1ccc(OCc2ccccc2)cc1`, the IC50 was 95.2 µM (PTGS1; enzyme activity, inhibitor, absorbance).
The IC50 of `Nc1ncc(-c2cnn(C3CCNCC3)c2)cc1-c1nc2ccccc2o1` is reported as 1.79 µM (JAK2 (Homo sapiens, UniProt O60674); enzyme activity, inhibitor, TR-FRET).
The IC50 of `CC(=O)NCCN(CC(=O)NCCN(CC(=O)NCCN(CC(=O)NCCC(N)=O)C(=O)[C@@H](N)Cc1ccccc1)C(=O)[C@@H](N)CCCNC(=N)N)C(=O)[C@@H](N)CCCNC(=N)N` is reported as 7.6 ± 0.7 µM (HIV-1 TAR RNA; Tat/TAR complex displacement, FRET; room temperature, with: 10 nM Tat/TAR complex).
With `CCCCCCCCC/C=C/C=C/C(=O)N[C@H](C(=O)N[C@H]1C[C@@H](O)CCNC(=O)/C=C/[C@H](C)NC1=O)[C@@H](C)O` the IC50 was 0.024 µM (PSMB7 (Homo sapiens, UniProt Q99436); trypsin-like activity, inhibitor; human constitutive proteasome, with: Bz-VGR-AMC).

Repeated from above:
The IC50 of `O=C1N=C(O)SC1=Cc1ccc(-c2cccc(C(F)(F)F)c2)o1` is reported as 20.8 µM (CD38 (Homo sapiens, UniProt P28907); cyclase activity, fluorometric; with: NGD+ substrate).
For `CC1=C(/C=C/C(C)=C/C=C/C(C)=C/C=O)C(C)(C)CCC1`, the IC50 was 0.22 µM (CNGA1 (Bos taurus, UniProt Q00194); cGMP-activated current, inhibitor, inside-out patch clamp; +100 mV, with: saturating cGMP 2 mM).
`CCn1cc(-c2ccnc(Nc3ccc(OC)cc3)n2)c(-c2cccnc2)n1` gave an IC50 of 0.0943 µM (ACVR1 (Homo sapiens, UniProt Q04771, R206H); enzyme activity, inhibitor, radiometric).
`C=C(NC(=O)C(=C)NC(=O)c1csc(C2=NC3c4csc(n4)C4NC(=O)c5csc(n5)C(C(C)(O)C(C)O)NC(=O)C5CSC(=N5)C(=CC)NC(=O)C(C(C)O)NC(=O)c5csc(n5)C3(CC2)NC(=O)C(C)NC(=O)C(=C)NC(=O)C(CCSC)NC(=O)C(C(C)CC)NC2C=Cc3c(C(C)O)cc(nc3C2O)C(=O)OC4C)n1)C(N)=O` (centres unmarked) has an IC50 of 0.09 ± 0.01 µM (Proteasome subunit beta type-7, in 20S proteasome (PSMB7, Homo sapiens, UniProt Q99436); trypsin-like activity, inhibitor; purified human 20S proteasome; 37 °C, 15 min preincubation, with: Boc-Leu-Arg-Arg-AMC).
